Measurements collected from several papers.
Each line is one published result; not all experiments were run side by side. ± gives the spread as reported.
LRP1 CR3 domain: LRP1, CR3 domain (Homo sapiens, UniProt Q07954)
UniProt Q07954, sequence (whole entry, looked up): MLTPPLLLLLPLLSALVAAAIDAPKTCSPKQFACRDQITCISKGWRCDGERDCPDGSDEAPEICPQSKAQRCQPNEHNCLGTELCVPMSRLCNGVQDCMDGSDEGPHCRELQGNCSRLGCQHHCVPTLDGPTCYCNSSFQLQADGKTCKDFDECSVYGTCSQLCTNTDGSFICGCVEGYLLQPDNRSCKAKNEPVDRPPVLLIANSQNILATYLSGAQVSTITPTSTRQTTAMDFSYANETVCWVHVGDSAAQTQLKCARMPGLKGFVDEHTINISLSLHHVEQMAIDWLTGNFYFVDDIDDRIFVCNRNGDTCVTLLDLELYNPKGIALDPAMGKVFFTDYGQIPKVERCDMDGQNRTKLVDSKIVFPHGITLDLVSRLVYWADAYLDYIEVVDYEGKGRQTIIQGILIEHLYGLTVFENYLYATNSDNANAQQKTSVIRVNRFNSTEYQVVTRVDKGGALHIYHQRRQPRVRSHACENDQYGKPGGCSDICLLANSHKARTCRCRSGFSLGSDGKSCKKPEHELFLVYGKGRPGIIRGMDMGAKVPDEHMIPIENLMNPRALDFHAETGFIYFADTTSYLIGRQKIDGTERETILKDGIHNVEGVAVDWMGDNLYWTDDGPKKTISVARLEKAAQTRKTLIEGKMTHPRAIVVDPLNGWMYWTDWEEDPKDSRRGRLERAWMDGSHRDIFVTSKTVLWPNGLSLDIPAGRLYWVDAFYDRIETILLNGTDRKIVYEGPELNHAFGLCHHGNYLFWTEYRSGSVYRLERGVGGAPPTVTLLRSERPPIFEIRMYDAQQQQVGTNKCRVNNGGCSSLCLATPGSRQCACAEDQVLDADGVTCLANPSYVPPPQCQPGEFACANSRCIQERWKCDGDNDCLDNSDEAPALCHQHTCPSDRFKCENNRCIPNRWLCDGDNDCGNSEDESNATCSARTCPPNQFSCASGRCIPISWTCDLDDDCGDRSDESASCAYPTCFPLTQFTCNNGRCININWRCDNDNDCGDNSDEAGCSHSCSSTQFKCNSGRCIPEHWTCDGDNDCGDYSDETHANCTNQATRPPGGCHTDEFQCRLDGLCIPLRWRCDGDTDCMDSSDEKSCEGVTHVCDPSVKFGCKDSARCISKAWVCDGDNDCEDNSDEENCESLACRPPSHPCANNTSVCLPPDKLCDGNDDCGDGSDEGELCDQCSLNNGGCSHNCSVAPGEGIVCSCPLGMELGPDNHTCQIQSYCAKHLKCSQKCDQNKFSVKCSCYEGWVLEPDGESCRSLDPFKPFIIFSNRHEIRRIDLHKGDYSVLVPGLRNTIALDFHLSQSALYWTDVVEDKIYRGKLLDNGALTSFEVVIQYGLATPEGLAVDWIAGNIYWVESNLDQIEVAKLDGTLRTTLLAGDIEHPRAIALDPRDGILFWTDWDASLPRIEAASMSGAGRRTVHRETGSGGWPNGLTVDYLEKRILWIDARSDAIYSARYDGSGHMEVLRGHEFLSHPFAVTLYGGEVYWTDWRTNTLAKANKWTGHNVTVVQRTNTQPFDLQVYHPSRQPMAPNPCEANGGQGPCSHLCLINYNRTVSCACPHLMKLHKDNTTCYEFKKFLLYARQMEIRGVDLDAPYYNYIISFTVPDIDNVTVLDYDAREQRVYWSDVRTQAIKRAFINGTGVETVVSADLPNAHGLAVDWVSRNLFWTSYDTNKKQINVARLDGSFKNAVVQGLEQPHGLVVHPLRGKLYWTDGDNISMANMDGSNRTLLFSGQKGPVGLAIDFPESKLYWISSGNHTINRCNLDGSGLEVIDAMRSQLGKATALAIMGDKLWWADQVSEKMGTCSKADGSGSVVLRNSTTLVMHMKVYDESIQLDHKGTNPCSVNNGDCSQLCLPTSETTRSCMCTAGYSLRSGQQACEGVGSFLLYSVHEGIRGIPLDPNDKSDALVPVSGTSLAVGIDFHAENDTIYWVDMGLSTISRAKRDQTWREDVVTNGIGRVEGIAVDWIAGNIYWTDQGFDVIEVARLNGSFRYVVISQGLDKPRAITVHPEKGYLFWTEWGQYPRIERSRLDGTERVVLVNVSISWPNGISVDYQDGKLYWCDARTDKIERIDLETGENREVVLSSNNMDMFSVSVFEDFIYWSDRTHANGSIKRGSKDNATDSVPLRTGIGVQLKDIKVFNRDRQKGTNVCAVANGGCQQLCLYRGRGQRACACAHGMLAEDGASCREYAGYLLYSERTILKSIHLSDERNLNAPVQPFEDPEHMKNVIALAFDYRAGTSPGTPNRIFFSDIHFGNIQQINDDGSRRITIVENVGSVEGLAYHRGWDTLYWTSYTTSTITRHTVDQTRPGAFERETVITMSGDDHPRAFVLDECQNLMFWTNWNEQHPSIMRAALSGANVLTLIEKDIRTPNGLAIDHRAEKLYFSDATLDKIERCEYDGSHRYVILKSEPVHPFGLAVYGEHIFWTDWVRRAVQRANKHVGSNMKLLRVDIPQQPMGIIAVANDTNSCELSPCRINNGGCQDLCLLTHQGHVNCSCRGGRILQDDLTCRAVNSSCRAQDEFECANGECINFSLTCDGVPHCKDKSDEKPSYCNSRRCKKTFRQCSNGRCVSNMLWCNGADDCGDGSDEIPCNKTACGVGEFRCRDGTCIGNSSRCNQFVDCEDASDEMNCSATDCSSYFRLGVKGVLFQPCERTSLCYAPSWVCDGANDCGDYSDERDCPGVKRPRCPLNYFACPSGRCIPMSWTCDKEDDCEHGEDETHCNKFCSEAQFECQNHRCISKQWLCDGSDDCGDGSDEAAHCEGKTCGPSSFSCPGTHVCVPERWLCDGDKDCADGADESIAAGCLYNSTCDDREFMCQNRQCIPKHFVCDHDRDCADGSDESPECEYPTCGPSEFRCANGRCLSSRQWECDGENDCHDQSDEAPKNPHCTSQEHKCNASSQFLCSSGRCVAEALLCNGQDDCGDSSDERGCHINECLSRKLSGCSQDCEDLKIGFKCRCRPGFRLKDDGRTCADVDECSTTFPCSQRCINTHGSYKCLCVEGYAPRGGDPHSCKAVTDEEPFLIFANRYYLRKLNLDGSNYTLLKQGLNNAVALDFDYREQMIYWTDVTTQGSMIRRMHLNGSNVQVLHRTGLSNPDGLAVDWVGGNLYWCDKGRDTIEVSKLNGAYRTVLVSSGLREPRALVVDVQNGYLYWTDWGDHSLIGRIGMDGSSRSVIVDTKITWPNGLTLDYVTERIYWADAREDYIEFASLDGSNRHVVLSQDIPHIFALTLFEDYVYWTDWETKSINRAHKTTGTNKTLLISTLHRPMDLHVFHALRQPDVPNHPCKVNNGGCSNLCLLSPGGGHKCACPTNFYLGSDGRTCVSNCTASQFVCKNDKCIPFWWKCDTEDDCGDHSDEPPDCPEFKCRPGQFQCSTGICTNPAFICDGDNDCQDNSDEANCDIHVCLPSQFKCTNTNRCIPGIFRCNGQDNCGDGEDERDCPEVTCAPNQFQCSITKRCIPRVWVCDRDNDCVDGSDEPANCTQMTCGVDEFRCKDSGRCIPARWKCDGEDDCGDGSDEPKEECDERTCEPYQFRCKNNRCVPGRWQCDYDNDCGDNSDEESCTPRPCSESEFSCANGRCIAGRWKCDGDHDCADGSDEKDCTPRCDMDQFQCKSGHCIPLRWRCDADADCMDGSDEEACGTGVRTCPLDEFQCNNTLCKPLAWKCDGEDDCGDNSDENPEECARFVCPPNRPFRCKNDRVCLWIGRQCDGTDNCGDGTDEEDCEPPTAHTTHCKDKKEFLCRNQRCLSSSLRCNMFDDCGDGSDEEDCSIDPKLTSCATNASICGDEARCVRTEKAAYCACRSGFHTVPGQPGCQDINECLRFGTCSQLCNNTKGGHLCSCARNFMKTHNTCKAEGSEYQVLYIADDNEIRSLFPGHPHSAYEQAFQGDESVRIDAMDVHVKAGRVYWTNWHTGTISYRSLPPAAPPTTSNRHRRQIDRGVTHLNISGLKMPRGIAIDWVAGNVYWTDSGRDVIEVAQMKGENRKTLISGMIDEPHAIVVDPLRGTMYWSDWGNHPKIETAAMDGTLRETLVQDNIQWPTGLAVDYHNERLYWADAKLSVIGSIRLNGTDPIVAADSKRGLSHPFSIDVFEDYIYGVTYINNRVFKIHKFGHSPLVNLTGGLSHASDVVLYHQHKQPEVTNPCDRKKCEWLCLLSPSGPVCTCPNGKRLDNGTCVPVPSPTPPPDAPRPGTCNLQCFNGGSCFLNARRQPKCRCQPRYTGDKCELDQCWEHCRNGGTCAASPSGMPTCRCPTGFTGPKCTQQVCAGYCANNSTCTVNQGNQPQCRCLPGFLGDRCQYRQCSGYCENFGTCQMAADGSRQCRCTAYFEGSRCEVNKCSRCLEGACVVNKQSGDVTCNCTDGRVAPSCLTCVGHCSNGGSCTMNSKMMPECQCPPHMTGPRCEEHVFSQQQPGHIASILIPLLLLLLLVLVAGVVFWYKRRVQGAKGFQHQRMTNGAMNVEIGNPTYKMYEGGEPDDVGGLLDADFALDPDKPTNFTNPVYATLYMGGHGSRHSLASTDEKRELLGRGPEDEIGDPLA
GRB2: Growth factor receptor-bound protein 2 (GRB2, Homo sapiens, UniProt P62993)
HCRTR1: Orexin/Hypocretin receptor type 1 (HCRTR1, Homo sapiens, UniProt O43613)
UniProt O43613, sequence (whole entry, looked up): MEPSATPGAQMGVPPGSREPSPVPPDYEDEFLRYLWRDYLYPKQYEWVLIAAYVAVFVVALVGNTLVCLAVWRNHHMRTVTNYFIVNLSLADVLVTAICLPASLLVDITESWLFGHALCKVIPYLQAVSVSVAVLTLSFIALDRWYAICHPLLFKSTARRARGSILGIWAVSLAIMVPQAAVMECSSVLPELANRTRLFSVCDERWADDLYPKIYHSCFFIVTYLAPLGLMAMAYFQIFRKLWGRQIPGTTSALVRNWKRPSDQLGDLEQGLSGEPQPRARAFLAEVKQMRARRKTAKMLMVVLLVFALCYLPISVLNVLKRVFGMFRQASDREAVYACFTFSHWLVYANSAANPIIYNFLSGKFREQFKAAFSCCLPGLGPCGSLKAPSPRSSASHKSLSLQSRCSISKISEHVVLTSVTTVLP
UniProt P09382, sequence (whole entry, looked up): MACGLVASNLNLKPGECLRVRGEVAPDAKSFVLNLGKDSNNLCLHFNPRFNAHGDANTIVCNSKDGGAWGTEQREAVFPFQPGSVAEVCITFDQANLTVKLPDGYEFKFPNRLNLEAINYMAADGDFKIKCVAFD

Substance = COCc1c(C(C)C)nc(C(C)C)c(/C=C/[C@@H](O)C[C@@H](O)CC(=O)O)c1-c1ccc(F)cc1; target = Cytochrome P450 2C8 (CYP2C8, Homo sapiens, UniProt P10632, K399R/R139K); assay = binding, equilibrium spectral titration; system = purified enzyme; setting = pH 7.4, 25 °C, second site, two-site model, added: 2 µM enzyme; Kd = 8.2 ± 2.2 µM
Substance = COC(=O)[C@@H](N)CCCN=C(N)N; target = LRP1 CR3 domain; assay = tryptophan fluorescence titration; setting = pH 7.4, 298 K, CR3 domain, ionic strength 0.02; Kd = 760 ± 60 µM
Substance = CN(C)[C@@H]1C(O)=C(C(N)=O)C(=O)[C@@]2(O)C(O)=C3C(=O)c4c(O)ccc(Cl)c4[C@@](C)(O)[C@H]3C[C@@H]12; target = HIV-1 SL3 RNA stem-loop; assay = binding, ESI-FTMS titration; setting = pH 7.5; Kd = 884 ± 300 µM
Substance = O=C(O)c1cc(=O)[nH]c(=O)n1[C@@H]1OC[C@@H](O)[C@H]1O; target = Orotidine 5'-phosphate decarboxylase (Saccharomyces cerevisiae S288c, UniProt P03962, S154A/Q215A); assay = HPLC initial velocity; setting = 25 °C, lower limit, no saturation; Kd = > 100000 µM
Substance = O=C1C=Cc2c(c(-c3ccco3)cn2S(=O)(=O)c2ccccc2)C1=O; target = ELAV-like protein 1 (ELAVL1, Homo sapiens, UniProt Q15717); assay = binding, SPR; Kd = 3.34 µM
Substance = CCCCCCCNCC(P(=O)(O)O)P(=O)(O)O; target = Farnesyl diphosphate synthase (Trypanosoma cruzi, UniProt Q8WS26); assay = binding, isothermal titration calorimetry; setting = 28 °C, first site, two-site model; Kd = 0.0102 µM
Substance = CCCC[C@H](NC(=O)[C@H](Cc1c[nH]c2ccccc12)NC(=O)COCC(=O)NCCCOCCOCCOCCCNC(=O)CN(CCN(CCN(CC(=O)O)CC(=O)O)CC(=O)O)CC(=O)O)C(=O)N[C@@H](CC(=O)O)C(=O)N[C@@H](Cc1ccccc1)C(N)=O; target = CCKBR (Homo sapiens, UniProt P32239); assay = Eu time-resolved fluorescence; system = HEK293 overexpressing CCKBR and MC4R; setting = 1 h, 37 °C, added: Ac-CCK4 1 µM blocking; Kd = 0.017 ± 0.002 µM
Substance = O=C1c2c(O)ccc(O)c2C(=O)c2c(NCCNCCO)ccc(NCCNCCO)c21; target = HIV-1 SL4 RNA stem-loop; assay = binding, ESI-FTMS titration; setting = pH 7.5; Kd = 10 ± 0.7 µM
Substance = CC[C@H](C)[C@H](NC(=O)[C@@H](N)CC(=O)O)C(=O)N[C@@H](C)C(=O)N1CCC[C@H]1C(=O)N1CCC[C@H]1C(=O)N[C@@H](CCCNC(=N)N)C(=O)N1CCC[C@H]1C(=O)N1CCC[C@H]1C(=O)N[C@@H](CCCCN)C(=O)N1CCC[C@H]1C(=O)N[C@@H](Cc1c[nH]cn1)C(=O)N1CCC[C@H]1C(=O)O; target = GRB2; assay = binding, ITC; setting = pH 8; Kd = 365 µM
Substance = [I-].[K+]; target = SLC4A1 (Homo sapiens, UniProt P02730); assay = chloride exchange flux, inhibitor, Dixon plot; system = human red blood cells; setting = pH 7.2, 0 °C, intracellular Cl 133 mM, added: external Cl 5.5 or 0.6 mM; Kd = 890 µM
Substance = COC(=O)[C@H](CCCCN)NC(C)=O; target = LRP1 CR3 domain; assay = binding, tryptophan fluorescence titration; system = isolated CR3 domain; setting = pH 7.4, 298 K, ionic strength 0.17; Kd = 2400 ± 120 µM
Substance = NC[C@@H]1O[C@H](O[C@H]2[C@@H](O)[C@H](O[C@@H]3[C@@H](O)[C@H](N)C[C@H](N)[C@H]3O[C@H]3O[C@H](CN)[C@@H](O)[C@H](O)[C@H]3N)O[C@@H]2CO)[C@H](N)[C@@H](O)[C@@H]1O; target = HIV-1 nucleocapsid-SL2 RNA complex; assay = binding, ESI-FTMS; setting = pH 7.5; Kd = 1.9 ± 0.3 µM
Substance = COc1ccc(CC2c3cc(OS(=O)(=O)c4ccc(C)cc4)c(OC)cc3CCN2CC(=O)NCc2ccccc2)cc1OC (centres unmarked); target = HCRTR1; Kd = 0.118 ± 0.054 µM
Substance = CC(C)C[C@H](NC(=O)[C@H](CC(N)=O)NC(=O)[C@H](CCCNC(=N)N)NC(=O)[C@H](CC(=O)O)NC(=O)[C@@H](NC(=O)[C@@H]1CCCN1C(=O)[C@@H]1CCCN1C(=O)[C@H](C)N)C(C)C)C(=O)N[C@@H](CCCCN)C(=O)N1CCC[C@H]1C(=O)N[C@@H](CC(=O)O)C(=O)N[C@@H](CCCNC(=N)N)C(=O)O; target = GRB2; assay = binding, ITC; setting = pH 8; Kd = 99 µM
Substance = CCOc1cc2c(cc1OC)CCN(CC(=O)NCc1ccccn1)C2Cc1ccc(OC)c(OC)c1 (centres unmarked); target = HCRTR1; Kd = 0.0874 ± 0.012 µM
Substance = C[C@@H](O)[C@H](NC(=O)[C@H](CC(N)=O)NC(=O)[C@H](CC(N)=O)NC(=O)[C@H](CCCNC(=N)N)NC(=O)[C@@H](N)CC(N)=O)C(=O)NCC(=O)O; target = dnaK (Escherichia coli, UniProt P0A6Y8); assay = peptide binding, surface plasmon resonance; setting = added: ATP; Kd = 0.716 µM
Substance = CCCCCCOc1cc2c(cc1OC)CCN(CC(=O)NCc1ccccc1)C2Cc1ccc(OC)c(OC)c1 (centres unmarked); target = HCRTR1; Kd = 0.315 ± 0.081 µM
Substance = COC(=O)[C@@H](N)CCCCN; target = LRP1, CR8 domain (Homo sapiens, UniProt Q07954); assay = binding, tryptophan fluorescence titration; system = isolated CR8 domain; setting = pH 7.4, 298 K, ionic strength 0.17; Kd = 350 ± 20 µM
Substance = COc1ccc(CC2c3cc(OC)c(OC)cc3CCN2CC(=O)OCc2ccccc2)cc1OC (centres unmarked); target = HCRTR1; Kd = > 10 µM
Substance = NC(=O)C[C@H](NC(=O)C1(NC(=O)[C@H](Cc2ccc(C(C(=O)O)C(=O)O)cc2)NC(=O)C(=O)O)CCCCC1)C(=O)NCCCc1cccc2c(OC(=O)CCCCCNC(=O)CCCC[C@@H]3SC[C@@H]4NC(=O)N[C@@H]43)cccc12; target = Growth factor receptor-bound protein 2, SH2 (GRB2, Homo sapiens, UniProt P62993); assay = binding, SPR; Kd = 0.405 µM
Substance = CC1=C(/C=C/C(C)=C/C=C/C(C)=C/C=C/C=C(C)/C=C/C=C(C)/C=C/C2=C(C)C(=O)[C@@H](O)CC2(C)C)C(C)(C)C[C@H](O)C1=O; target = GSTP1 (Homo sapiens, UniProt P09211); assay = surface plasmon resonance; setting = 25 °C, 1:1 binding model; Kd = 1.16 ± 0.02 µM
Substance = COc1cc2c(cc1O)C(Cc1ccc(OC)c(OC)c1)N(CC(=O)NCc1ccccc1)CC2 (centres unmarked); target = HCRTR1; Kd = 1.53 ± 0.53 µM
Substance = CC(=O)N[C@H]1C(O)O[C@H](CO)[C@@H](O[C@@H]2O[C@H](CO)[C@H](O)[C@H](O)[C@H]2O)[C@@H]1O (some centres unmarked); target = Galectin-1 (LGALS1, Homo sapiens, UniProt P09382); Kd = 81.7 ± 1.7 µM
Substance = O=C(O)CNC(=O)c1cc(CNC(=O)c2ccc(CNC(=O)[C@H]3C[C@H](NC(=O)CCNS(=O)(=O)c4ccc5ccccc5c4)CN3C(=O)c3nn(-c4ccccc4)c(=O)[nH]c3=O)cc2)cc(OCC(=O)N[C@@H](CCCCNC(=S)Nc2ccc3c(c2)C(=O)OC32c3ccc(O)cc3Oc3cc(O)ccc32)C(=O)O)c1; target = FOLH1 (Homo sapiens, UniProt Q04609); assay = cell-free assay, FP; Kd = 0.019 µM
Substance = O=C(O)c1cc(Cc2ccc(NCc3ccccc3)c(C(=O)O)c2)ccc1NCc1ccccc1; target = PPIA (Homo sapiens, UniProt P62937); assay = binding, SPR; setting = pH 7.4; Kd = 184 µM
Substance = CCCCCCCNC(=O)CN1CCc2cc(OC)c(OC)cc2C1Cc1ccc(OC)c(OC)c1 (centres unmarked); target = HCRTR1; Kd = 0.589 ± 0.23 µM
Substance = hyaluronan dodecasaccharide; target = human CD44 link domain; assay = SPR; setting = pH 7.4; Kd = 55 µM
Substance = COc1ccc(CC2c3cc(OC)c(OC)cc3CCN2CC(=O)N2CCN(c3ccccc3)CC2)cc1OC (centres unmarked); target = HCRTR1; Kd = > 10 µM
Substance = BzATP; target = P2X purinoceptor 7 (P2rx7, Rattus norvegicus, UniProt Q64663); assay = bio-layer interferometry; Kd = 0.0074 ± 0.0027 µM

Some of these lines once more:
Substance = COC(=O)[C@@H](N)CCCCN; target = LRP1, CR8 domain (Homo sapiens, UniProt Q07954); assay = binding, tryptophan fluorescence titration; system = isolated CR8 domain; setting = pH 7.4, 298 K, ionic strength 0.17; Kd = 350 ± 20 µM
Substance = O=C1C=Cc2c(c(-c3ccco3)cn2S(=O)(=O)c2ccccc2)C1=O; target = ELAV-like protein 1 (ELAVL1, Homo sapiens, UniProt Q15717); assay = binding, SPR; Kd = 3.34 µM
Substance = NC(=O)C[C@H](NC(=O)C1(NC(=O)[C@H](Cc2ccc(C(C(=O)O)C(=O)O)cc2)NC(=O)C(=O)O)CCCCC1)C(=O)NCCCc1cccc2c(OC(=O)CCCCCNC(=O)CCCC[C@@H]3SC[C@@H]4NC(=O)N[C@@H]43)cccc12; target = Growth factor receptor-bound protein 2, SH2 (GRB2, Homo sapiens, UniProt P62993); assay = binding, SPR; Kd = 0.405 µM
